Results of several laboratories.
± gives the spread as reported.
Cell line: MDA-MB-231

| SMILES | effect on | method | time | notes | IC50 |
| --- | --- | --- | --- | --- | --- |
| Cc1cc(C#N)cc(C)c1Oc1cc(Nc2ccc(C#N)cn2)nc2cnccc12 | – | – | 48 h | – | > 127 µM |
| CCCCCCCCCCCCCCCOC(=O)/C=C/c1cccc(O)c1 | cell viability | MTT | 48 h | serum-free medium | 1.9 ± 0.1 µg/mL |
| COc1cc(OC)c(-c2coc3c(CC=C(C)C)c(OC)cc(O)c3c2=O)cc1OC | cell growth or viability | MTT | 24 h | – | > 100 µM |
| COc1ccc(COC[C@](O)(CNCc2ccccc2)[C@@H]2CC[C@@H](C)C[C@H]2OCc2ccc(OC)cc2)cc1 | cell growth or viability | MTT | 72 h | – | 2.1 µM |
| O=C(CN1C(=O)NC(c2ccccc2)(c2ccccc2)C1=O)N/N=C/c1ccccc1 | cell growth or viability | resazurin | 24 h | – | 240 µM |
| CN[C@@H](C)C(=O)N[C@H]1CN(C(=O)Cc2ccccc2)CC[C@H]2CC[C@@H](C(=O)NCc3ccccc3)N2C1=O | cell growth or viability | – | 96 h | – | 0.049 µM |
| CC/C(=C(\c1ccccc1)c1ccc(OCCN(C)CCCCCC(=O)NCCc2c[nH]c3ccc(OC)cc23)cc1)c1ccccc1 | cell survival | MTT | day 9 | dosed days 2, 4, 7 | 15.8 µM |
| CCOC(=O)C1CC(CC)C2C=CC3CCN(C(=O)C4CCC5C=CC6(CCCN6C(=O)C(Cc6ccccc6Cl)NC(C)=O)C(=O)N54)C3C(=O)N12 (centres unmarked) | cell migration | – | – | – | 26 µM |
| COc1ccc2cc([C@H](C)C(=O)[O][Re-2]3(=[C]=O)(=[C]=O)(=[C]=O)[n+]4c(C)cc(-c5ccccc5)c5ccc6c(-c7ccccc7)cc(C)[n+]3c6c54)ccc2c1 | cell growth or viability | resazurin | 72 h | – | 6.52 µM |
| Oc1ccc(Br)cc1C=NNC(=S)Nc1ccccc1 | cell growth or viability | MTT | 72 h | – | 1.5 µM |
| Brc1ccc2nc3c4ccc[n+]5c4c4c(ccc[n+]4[Ru-4]546([n+]5ccccc5-c5cccc[n+]54)[n+]4ccccc4-c4cccc[n+]46)c3nc2c1.[O-][Cl+3]([O-])([O-])O.[O-][Cl+3]([O-])([O-])O | cell growth or viability | MTT | 72 h | – | > 100 µM |
| CN[C@@H](C)C(=O)N[C@H]1CN(C(=O)Cc2ccccc2)CC[C@H]2CC[C@@H](C(=O)NCc3ccccc3C(F)(F)F)N2C1=O | cell growth or viability | – | 96 h | – | 0.118 µM |
| O=C1C(=NN=c2[nH]ccs2)c2cc(Cl)ccc2N1CCn1ncc2c(=O)[nH]cnc21 | cell growth or viability | SRB | 72 h | – | 3.89 µM |
| Cc1ccc(C(C)C)cc1.O=C(N=P(c1ccccc1)(c1ccccc1)c1ccccc1)c1ccccn1.[Cl-].[Cl][Ru+] | cell growth or viability | resazurin | – | – | 3.7 µM |
| C=C1C(=O)OC2CC3=C[C@@H](C/C(C)=C/C(OC(=O)Cc4cccc5ccccc45)[C@H]12)OC3=O (some centres unmarked) | cell growth or viability | MTT | – | – | 3.8 µM |
| COC(=O)[C@@H]1CCCN1C(=O)[C@H](Cc1ccccc1)NC(=O)OC(C)(C)C | cell growth or viability | SRB | – | – | 16 µM |
| COc1ccc(/N=N/C(=S)N2CCCCC2)cc1 | cell growth or viability | resazurin | 48 h | – | > 50 µM |
| CCOC(=O)C1=C(COCc2cn(CCN3C(=O)C(=O)c4cc(Cl)ccc43)nn2)N=C2Sc3ccccc3N2C1c1cccc(Cl)c1 (centres unmarked) | cell growth or viability | MTT | – | – | > 100 µM |
| C[C@@H]1CC[C@@H]([C@@](O)(CNCc2cccc(F)c2)COCc2ccccc2)[C@H](OCc2ccccc2)C1 | cell growth or viability | MTT | 72 h | – | 4.2 µM |
| Cc1cc(C)c(-n2c3c([n+](-c4c(C)cc(C)cc4C)[c]2[Au-][Cl])-c2cccc4cccc-3c24)c(C)c1 | cell growth or viability | MTT | 72 h | – | 19 µM |

| SMILES | effect on | method | time | notes | IC50 |
| --- | --- | --- | --- | --- | --- |
| CN[C@@H](C)C(=O)N[C@H]1CN(C(=O)Cc2ccccc2)CC[C@H]2CC[C@@H](C(=O)NCc3ccc(C(C)C)cc3)N2C1=O | cell growth or viability | – | 96 h | – | 0.705 µM |
| CC(C)Cc1ccc(C(C)C(=O)[O][Re-2]2(=[C]=O)(=[C]=O)(=[C]=O)[n+]3ccc(-c4ccccc4)c4ccc5c(-c6ccccc6)cc[n+]2c5c43)cc1 (racemic) | cell growth or viability | resazurin | 72 h | – | 1.06 µM |
| CCn1c[n+](CC)c2ccccc21 | cell growth or viability | crystal violet | 96 h | – | > 100 µM |
| C=CC(OC(C)=O)c1ccc(OC)cc1 (centres unmarked) | – | MTT | 24 h | – | > 50 µM |
| Oc1ccccc1-c1nn(-c2ccccn2)[n+](-c2ccccc2)n1 | cell growth or viability | resazurin | 72 h | – | 17 µM |
| CC12CCC3c4ccc(OCCOc5no[n+]([O-])c5S(=O)(=O)c5ccccc5)c(Br)c4CCC3C1CCC2O (centres unmarked) | cell growth or viability | MTT | 48 h | – | 0.0046 µM |
| O=C(CNc1nc(NNC(=O)c2ccc(Nc3nc(Nc4ccc(C(=O)NNc5nc(NCC(=O)NO)nc(N6CCOCC6)n5)cc4)nc(Nc4ccc(C(=O)NNc5nc(NCC(=O)NO)nc(N6CCOCC6)n5)cc4)n3)cc2)nc(N2CCOCC2)n1)NO | cell growth or viability | MTT | 72 h | – | 0.0467 µM |
| C=CC(=C)CC[C@]1(C)[C@H](C)CC[C@@]23C(=C[C@H](OC(=O)C(C)C)C[C@@H]12)[C@@H](OC(C)=O)O[C@H]3OC(C)=O | cell growth or viability | SRB | – | – | 22.9 µM |
| Cc1ccc(C(C)C)cc1.O=C(N=P12CN3CN(CN(C3)C1)C2)c1[c-]cccc1.[Cl-].[Ru+2] | cell growth or viability | MTT | 24 h | – | 75.4 µM |
| CN[C@@H](C)C(=O)N[C@H]1CN(C(=O)Cc2ccccc2)CC[C@H]2CC[C@@H](C(=O)NCc3cccc(F)c3)N2C1=O | cell growth or viability | – | 96 h | – | 0.197 µM |
| COc1ccccc1CNC[C@](O)(COCc1ccccc1)[C@@H]1CC[C@@H](C)C[C@H]1OCc1ccccc1 | cell growth or viability | MTT | 72 h | – | 2.5 µM |
| Cc1cc(=O)[nH]c(=O)n1CCCCCCOC(=O)C12CCC(C)C(C)C1C1=CCC3C4(C)CCC(O)C(C)(C)C4CCC3(C)C1(C)CC2 (centres unmarked) | collagen biosynthesis | [3H]-proline incorporation | 24 h | – | ~10 µM |
| C[C@]12CC/C(=N\OCCN3CCCC3)C=C1CCC1C2CC[C@]2(C)/C(=C/c3ccccn3)CCC12 (some centres unmarked) | cell growth or viability | MTT | 72 h | – | 4.7 µM |
| COc1c(C)c(O)c(C(=O)C=Cc2ccccc2)c(OC)c1C | cell growth or viability | SRB | 72 h | – | 26.2 µM |
| COc1cc(/C=C/C(=O)/C=C/c2cn(-c3ccccc3)nc2C(=O)O)ccc1O | cell growth | – | 72 h | – | 22.6 ± 4.74 µM |
| Clc1ccc2ccc3[n+](c2c1)[Ir-3]12([c]4ccccc4-3)([c]3ccccc3-c3ccc4ccc(Cl)cc4[n+]31)[n+]1ccccc1-c1cccc[n+]12.F[P-](F)(F)(F)(F)F | cell growth | MTT | 72 h | – | 0.21 ± 0.01 µM |
| CC(C)c1cccc(C(C)C)c1[N+]#[C][Pd-]([Cl])([Cl])=[C](Nc1cccc(CN[C](Nc2c(C(C)C)cccc2C(C)C)=[Au][Cl])c1)Nc1c(C(C)C)cccc1C(C)C | cell growth or viability | – | – | – | 6 µM |
| O=S([O-])c1ccccc1N=Cc1ccccc1[O-].[Cu+2].c1c[nH]cn1 | cell viability | MTT | 24 h | – | 9.97 ± 0.03 µM |
| O=c1oc2cc(O)cc3c2c2c(cc(O)cc12)CC3 | cell growth or viability | MTT | 48 h | – | 26.3 µM |
| Cc1cc(C)c([N+]#[C][Pt-]([Cl])([Cl])=[C](Nc2cccc(CN[C](Nc3c(C(C)C)cccc3C(C)C)=[Au][Cl])c2)Nc2c(C)cc(C)cc2C)c(C)c1 | cell growth or viability | – | – | – | > 100 µM |

| SMILES | effect on | method | time | notes | IC50 |
| --- | --- | --- | --- | --- | --- |
| Cc1cc(C=O)cc(C)c1Oc1cc(Nc2ccc(C#N)cc2)nc2cnccc12 | – | – | 48 h | – | 85.7 ± 8 µM |
| CCc1ccc(CNC(=O)[C@@H]2CC[C@@H]3CCN(C(=O)Cc4ccccc4)C[C@H](NC(=O)[C@H](C)NC)C(=O)N32)cc1 | cell growth or viability | – | 96 h | – | 0.164 µM |
| CCN(CC)c1ccc2c(c1)[O][Pd]([CH2]C#N)[N](C1CCCCC1)c1ncccc1N=C2 | cell growth or viability | MTT | 48 h | – | 40.6 µM |
| Cc1ccc(-n2cc(CSc3nc4ccccc4n3Cc3cn(-c4ccc(C)cc4)nn3)nn2)cc1 | cell growth or viability | MTT | – | – | 31.4 µg/mL |
| COc1ccc(/C=C/C(=O)/C=C/c2cn(-c3ccccc3)nc2C(=O)O)cc1OC | cell growth | – | 72 h | – | 19.3 ± 2.61 µM |
| CCCCCCCCCCCCCCCC(=O)Oc1ccc(CO)cc1OC(=O)CCCCCCCCCCCCCCC | cell viability | MTT | 48 h | serum-free medium | no effect |
| [Cl][Cu-][c]1n(-c2c(C(c3ccccc3)c3ccccc3)cc(C(c3ccccc3)c3ccccc3)cc2C(c2ccccc2)c2ccccc2)c2c([n+]1-c1c(C(c3ccccc3)c3ccccc3)cc(C(c3ccccc3)c3ccccc3)cc1C(c1ccccc1)c1ccccc1)-c1cccc3cccc-2c13 | cell growth or viability | MTT | 72 h | – | > 50 µM |
| COC(=O)C1CN1S(=O)(=O)c1ccc2cc(N(C)C)ccc2c1 (centres unmarked) | cell growth or viability | MTT | 48 h | – | 38 µM |
| COc1cc2c(=O)c(-c3ccc4c(c3)OCO4)coc2c2c1OC(C)(C)C=C2 | cell growth or viability | MTT | 72 h | – | 12.9 µM |
| CO[C@@H]1C(=O)c2ccc(O)cc2O[C@@H]1c1ccc(O)c(O)c1 (relative stereo) | cell growth or viability | MTT | 72 h | – | 193 µM |
| CC(C)(C)N=[C](NCc1ccc(N)cc1)[AuH][Cl] | cell growth or viability | – | – | – | > 100 µM |
| CC12CCC3c4ccc(OCCOc5no[n+]([O-])c5S(=O)(=O)c5ccccc5)cc4CCC3C1CCC2O (centres unmarked) | cell growth or viability | MTT | 48 h | – | 0.0045 µM |
| COC(=O)C1CCCN1C(=O)C(Cc1ccccc1)N(C)C(=O)CC(O)C(CC(C)C)NC(=O)C(CC(C)C)N(C)C(=O)C(CC(C)C)NC(=O)C(O)C(C)C (centres unmarked) | cell growth or viability | MTT | 48 h | – | 40 µM |
| CC(=O)N[C@@H](Cc1c[nH]c2ccccc12)C(=O)[O][Re-2]1(=[C]=O)(=[C]=O)(=[C]=O)[n+]2c(C)cc(-c3ccccc3)c3ccc4c(-c5ccccc5)cc(C)[n+]1c4c32 | cell growth or viability | resazurin | 72 h | – | 1.74 µM |
| CN(C)c1cc[n+](CCCCC[n+]2ccc(N(C)C)cc2)cc1 | cell growth or viability | MTT | 72 h | – | 54.7 µM |
| CC(C)c1cccc(C(C)C)c1[N+]#[C][Pd-]([Cl])([Cl])=[C](Nc1ccc(CN[C](Nc2c(C(C)C)cccc2C(C)C)=[Au][Cl])cc1)Nc1c(C(C)C)cccc1C(C)C | cell growth or viability | – | – | – | > 100 µM |
| CN1CCCC1CCO/N=C1/C=C2CCC3C(CC[C@]4(C)/C(=C/c5ccccn5)CCC34)[C@@]2(C)CC1 (some centres unmarked) | cell growth or viability | MTT | 72 h | – | > 100 µM |
| CC12CCC3c4ccc(OCCCOc5no[n+]([O-])c5S(=O)(=O)c5ccccc5)cc4CCC3C1CCC2O (centres unmarked) | cell growth or viability | MTT | 48 h | – | 0.0022 µM |
| Cc1cc(C)c(N[C](NCc2ccc(N[C](Nc3c(C(C)C)cccc3C(C)C)=[Pt-]([Cl])([Cl])[C]#[N+]c3c(C(C)C)cccc3C(C)C)cc2)=[Au][Cl])c(C)c1 | cell growth or viability | – | – | – | > 100 µM |

A few entries again:
| SMILES | effect on | method | time | notes | IC50 |
| --- | --- | --- | --- | --- | --- |
| CC(C)c1cccc(C(C)C)c1[N+]#[C][Pd-]([Cl])([Cl])=[C](Nc1ccc(CN[C](Nc2c(C(C)C)cccc2C(C)C)=[Au][Cl])cc1)Nc1c(C(C)C)cccc1C(C)C | cell growth or viability | – | – | – | > 100 µM |
| Clc1ccc2ccc3[n+](c2c1)[Ir-3]12([c]4ccccc4-3)([c]3ccccc3-c3ccc4ccc(Cl)cc4[n+]31)[n+]1ccccc1-c1cccc[n+]12.F[P-](F)(F)(F)(F)F | cell growth | MTT | 72 h | – | 0.21 ± 0.01 µM |
| Cc1cc(C)c(-n2c3c([n+](-c4c(C)cc(C)cc4C)[c]2[Au-][Cl])-c2cccc4cccc-3c24)c(C)c1 | cell growth or viability | MTT | 72 h | – | 19 µM |
| CC12CCC3c4ccc(OCCOc5no[n+]([O-])c5S(=O)(=O)c5ccccc5)c(Br)c4CCC3C1CCC2O (centres unmarked) | cell growth or viability | MTT | 48 h | – | 0.0046 µM |
| CC(C)Cc1ccc(C(C)C(=O)[O][Re-2]2(=[C]=O)(=[C]=O)(=[C]=O)[n+]3ccc(-c4ccccc4)c4ccc5c(-c6ccccc6)cc[n+]2c5c43)cc1 (racemic) | cell growth or viability | resazurin | 72 h | – | 1.06 µM |
